Measurements from different studies.
Parts stem from different laboratories: compare values within a part only.

Set 1
Target: Histone acetyltransferase KAT6A, winged helix 1, GST fusion (KAT6A, Homo sapiens, UniProt Q92794, residues 1-85)
Technique: protein binding microarray
Form: double-stranded DNA, one strand shown
Medium: in vitro
Concentration: not given
Notes: 8-mer, flanks averaged, mean of 2 arrays, mostly near background
Reference: not given
Reading: higher = stronger binding
Construct (chain): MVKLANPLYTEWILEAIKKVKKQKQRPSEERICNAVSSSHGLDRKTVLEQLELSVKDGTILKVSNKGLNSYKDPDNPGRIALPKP
Sequence	E-score
GGGTGACA	0.0617
CTGACCAA	-0.232
GAGGCATA	-0.0238
ACTGAATG	0.0353
ATATTCGG	-0.106
TACACTCA	-0.296
GGTAAAAC	-0.153
AAAATTGT	-0.289
CTACAGAA	-0.129
GGCATCAA	-0.0144
CCGTTATA	0.141
ATACAGGG	-0.0614
AACACACC	-0.064
ATTAGCAC	-0.0253
ACTTCGGA	-0.0853
ATTTATGG	-0.13
ACGAGCGA	-0.172

Set 2
Target: Ras GTPase-activating protein-binding protein 1, full length (G3BP1, Homo sapiens, UniProt Q13283)
UniProt Q13283, sequence (whole entry, looked up): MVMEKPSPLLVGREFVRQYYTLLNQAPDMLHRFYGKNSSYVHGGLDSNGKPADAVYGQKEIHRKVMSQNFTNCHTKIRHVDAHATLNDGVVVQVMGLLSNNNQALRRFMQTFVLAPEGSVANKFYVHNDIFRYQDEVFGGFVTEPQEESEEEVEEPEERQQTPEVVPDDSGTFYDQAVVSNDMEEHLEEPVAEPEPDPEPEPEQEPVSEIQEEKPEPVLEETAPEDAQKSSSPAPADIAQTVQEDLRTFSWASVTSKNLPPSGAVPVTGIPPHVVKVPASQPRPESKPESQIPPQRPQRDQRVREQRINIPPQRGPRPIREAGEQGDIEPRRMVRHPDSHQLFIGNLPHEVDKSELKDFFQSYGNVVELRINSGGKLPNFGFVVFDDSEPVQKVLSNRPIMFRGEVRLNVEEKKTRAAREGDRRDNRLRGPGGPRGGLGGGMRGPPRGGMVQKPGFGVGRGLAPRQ
Technique: RNA Bind-n-Seq
Form: RNA
Medium: in vitro
Concentration: 200 nM
Notes: whole 134-nt RNA, ends assumed
With: 150 mM KCl
Reference: input library
Reading: higher = stronger binding
Shared flanks, not repeated: GGGAGUUCUACAGUCCGACGAUC … UGGAAUUCUCGGGUGUCAAGG
Sequence	log2 enrichment
CCUGUGCUACACAUCGUAUGUACCGAAUCGGCCCCCCGGGGCCCCCCGGGCCCCCCGGGGAAAGUAUUAUGUUACGCCGUUCGGAUCUGC	-0.826
CUCAAGUCCUGUGCUACACAUCGUAUGUACCGAAUCGGUUUUUGGAGGUUUGGAAAGUAUUAUGUUACGCCGUUCGGAUCUGCACUUCCA	-0.64
GGUAAACGCCCUGCAGAAGAUAUGGAAGAGGAACAAGCAUUUAAAAGAUCUAGAAACACUGAUGAGAUGGUUGAAUUACGCAUUCUGCUU	-0.14
UGCCAUGGACAAUAUUACCAGGCAGAACCAAUUCUACGAUACCCAAGUCAUCAAACAAGAAAACGAGUCAGGCUACGAGAGGAGACCACU	-0.109
CACAGACAACACGCACCCACACAGACACAGAGGGGAGGGGUUGGGAUGGGGACAGGGUGCACAGCAGGGCGGGGUAGGACCCCAGCCCCU	1.84
CCUGUGCUACACAUCGUAUGUACCGAAUCGGGAAAAAAGGAAAAAAGGGGAAAAAAGGGGAAAGUAUUAUGUUACGCCGUUCGGAUCUGC	-0.582
UGGGAGGUGGAUUUUGUUUAUUUGUUUAGCUCAUUUCCAGGGGUGGGAAUUUUUUUUUAAUAUGUGUCAUGAAUAAAGUUGUUUUUGAAA	0.155
UGGCCCUGGUGGCAUGCGGGGAGGAAGAGGUGGCCUCAUGGAUCGUGGUGGUCCCGGUGGAAUGUGCAGAGGUGGCCGUGGUGGAGACAG	0.523
AAGUCCUGUGCUACACAUCGUAUGUACCGAAUCGGGUUUUUUUGGGUUUGGGUGGGAAAGUAUUAUGUUACGCCGUUCGGAUCUGCACUU	0.163

Set 3
Target: RNA binding protein fox-1 homolog 2, RRM domain, GST-SBP tag (RBFOX2, Homo sapiens, UniProt O43251-10, residues 100-194)
Technique: RNA Bind-n-Seq
Form: RNA
Medium: in vitro
Concentration: 365 nM
Notes: natural RNA segment, single round, ends assumed
Reference: no-protein control
Reading: higher = stronger binding
Shared flanks, not repeated: GGGAGUUCUACAGUCCGACGAUC … UGGAAUUCUCGGGUGCCAA
Residues (chain): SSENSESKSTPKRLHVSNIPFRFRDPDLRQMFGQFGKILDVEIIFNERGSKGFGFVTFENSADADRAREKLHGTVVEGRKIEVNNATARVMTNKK
Sequence	RBNS enrichment (R)
CCCUUGGGUCCUAGUGUUAUGUUCCAGUCUGCCCACCUGUGCUCAGGAUGCAGCCCUGGGAUCCAGCACCCAUGGAAGCUUCUGCUGGGAUGGUGUCACCUAUGGGUUUU	0.3
AAUGCUGGUCAUUUCCUUUGCAAAGGACAGUCUCUGAAUUAUACCUACAACCUGUUCUGGGACAGUAUCAAUACUGAUGAGCAACCUGGCACACAAACUAUGAGCAGACC	0.339
CAUGCACUGGCUGAAGUGGGCAGACUGGAGGCGGCCUCUGCAAGAAAUGGAGUCAGGCGAAGUCCACCUUGUACGCUGCUGUGCGGCUUAGGAAUAAAGUGAAUCUCUUC	0.381
ACCCCCACACACGUCAUCUGCAUUGUUAUUGGAGCCUGUACUUAGAGGGAUUAAGCCCACACCCUGGCUUCCAUUCCAUAUCAGGUACAGGAUUUGAUGUUAUUAACAUU	0.499
CUCUCUCUUCAGCCGCUCCACAGGACAGCCAUUCCUUCUGCCGCCCACCCCCCUUAGACCACAGACAGCAUAUGGGUAUUGCUUGUUUAGAUCCAUCCCACACCCAGACA	1.54
UGUUGACCUGCUCAGGUGCACAUCUGUGAUGCCGACAGACUUGGUUCAGUUUUUAUAGUUGUGUUGGUUUUCUUAAUUGAUUUUUGUUAAUAAUACCUUAAUCCAGGGUA	0.55
AGGGAAUAUUUUAACUCGCAAGGUGAUGUUCUGUACAAAACGUGGUAUAUGUUACCCACAGUCCAUUUCAGUUAUUCCCACAAGUCAGGUCCAGAUAAAUGAGGGUUAUC	0.976
UCCCGUCAUCUGUUGGCUUCAGGAGGACUGCCAUAAAGUCCCAUUGACAUUUACUCUUAUGUCUUUCUCUGGUCAUUCUGUUUUGUGGUACAAUCACCGUGUAAGUUAUG	0.626

Single results of other studies
Molecule	target	assay	test system	conditions	scale	endpoint	value
PhoQ, residues 284 288 289 292 302 303 AANNSF	PhoP, residues 12 14 15 18 19 LHATL (Escherichia coli, UniProt P23836)	Sort-seq, refers to: YFP reporter	E. coli	PhoQ-PhoP variant library, with: 10 µM Mg2+	reference: high Mg2+ state, higher = stronger signaling	fold induction	11.7

A few entries again (set 3):
Sequence	RBNS enrichment (R)
AAUGCUGGUCAUUUCCUUUGCAAAGGACAGUCUCUGAAUUAUACCUACAACCUGUUCUGGGACAGUAUCAAUACUGAUGAGCAACCUGGCACACAAACUAUGAGCAGACC	0.339
UCCCGUCAUCUGUUGGCUUCAGGAGGACUGCCAUAAAGUCCCAUUGACAUUUACUCUUAUGUCUUUCUCUGGUCAUUCUGUUUUGUGGUACAAUCACCGUGUAAGUUAUG	0.626
UGUUGACCUGCUCAGGUGCACAUCUGUGAUGCCGACAGACUUGGUUCAGUUUUUAUAGUUGUGUUGGUUUUCUUAAUUGAUUUUUGUUAAUAAUACCUUAAUCCAGGGUA	0.55
